Assay results of several laboratories.
Compare with care: the assays were run in different laboratories. Values joined by “and” are separate records of one study, mostly repeats; a detail may differ.
Target: Dual specificity mitogen-activated protein kinase kinase 3 (MAP2K3, Homo sapiens, UniProt P46734)

CNC1C[S+]2CC[S+]3CC[S+](C1)[Ru-4]321([N]=C=S)[n]2c3ccc(OC)cc3c3c4c(c5cc(F)c[n+]1c5c32)C(=O)NC4=O (stereo not shown)
remaining binding (KinomeScan; 0.1 µM; reference: untreated): 87%

C=CC(=O)N1CCCC(n2c(=O)c3ncccc3n(Cc3ccc(Oc4ccccc4)cc3)c2=O)C1 (stereo not shown)
remaining binding (cell-free assay, competition with immobilised ligand; 1 µM): 70%

Cc1cnc2nc1Nc1cccc(c1)COC/C=C/COCc1cc(ccc1OCCN1CCOCC1)N2
remaining binding (binding, competition with immobilised ligand; 0.1 µM): 75%

CCN1CCN(Cc2ccc(C(=O)Nc3ccc(C)c(NCc4cnc5[nH]ccc5c4OC)c3)cc2C(F)(F)F)CC1
remaining binding (binding, competition with immobilised ligand; 1 µM): 59%

N[C@H]1CC[C@H](Nc2nccc(-c3cccnc3Oc3ccc(NC(=O)NC4CC4)c4ccccc34)n2)CC1
log2 LFQ intensity (kinobead competition pulldown; HEK293/HCT116 lysate mixture; 10 µM, 1 h, 4 °C; lower = stronger competition): 18.2 and 18.8 and 22 and 21.6

C=CC(=O)N1CCc2ccc(-n3c(=O)ccc4cnc5ccc(-c6cnn(C)c6)cc5c43)cc21
remaining binding (KINOMEscan; 1 µM; reference: DMSO control): 70%

COc1cc(Nc2nccc(-c3cnn4nc(OC)ccc34)n2)cc(C(F)(F)F)c1
remaining binding (binding, competition with immobilised ligand; 1 µM): 68%

COc1c(Cl)cccc1Nc1c(-c2ccncc2C#C[C@@]2(C)CCCN2C(=O)/C=C/CN(C)C)[nH]c2c1C(=O)NCC2
remaining binding (binding, competition with immobilised ligand; 3 µM): 69%

O=C(Cc1ccc(OCc2ccccc2)cc1)NC1(C(=O)O)CCN(C(=O)c2ccc(-c3cccc(Cl)c3)cc2)CC1
activity vs control (enzyme activity, inhibitor; 10 µM): 113%

Cc1cccc(O[C@H]2CCC[C@@H](C(C)CNCc3ccncc3)C2)c1 (relative stereo)
inhibition (enzyme activity, inhibitor; 1 µM): -4%

Some of these lines once more:
Cc1cnc2nc1Nc1cccc(c1)COC/C=C/COCc1cc(ccc1OCCN1CCOCC1)N2
remaining binding (binding, competition with immobilised ligand; 0.1 µM): 75%
